Results pooled from the literature.
Protocols differ between the studies behind these lines. “And” joins repeats or separate records; there may be more than shown. Numbers after ± are the reported error.

Structure (SMILES) | target or system | assay | system | setting | how to read | endpoint | value
CCCCCCCCCCCCCCC(=O)N[C@@H](CCCCNC(=O)CN1CCN(CC(=O)O)CCN(CC(=O)O)CCN(CC(=O)O)CC1)C(=O)NCCCC[C@@H]1NC(=O)[C@@H](Cc2ccccc2)NC(=O)[C@H](CC(=O)O)NC(=O)CNC(=O)[C@H](CCCNC(=N)N)NC1=O [indium-111 labelled] |  |  | female BALB/c nude mice, U-87 MG xenograft, tumour | intravenous, 24 h |  | tumour uptake | 10.7 ± 0.72 %ID/g
CCCCCCCCCCCCCCCCCCCCCCCCCC(=O)O[C@H](CCCCCCCCCCCCCC)[C@@H](O)[C@H](CO[C@H]1O[C@H](CO)[C@H](O)[C@H](O)[C@H]1O)NC(=O)OCc1ccc(NC(=O)[C@H](CCCNC(N)=O)NC(=O)[C@@H](NC(=O)CCCCCn2cc(CCC(=O)N[C@@H](Cc3ccccc3)C(=O)N[C@@H](Cc3ccccc3)C(=O)N[C@@H](CCCNC(=N)N)C(=O)N[C@@H](CCCCN)C(=O)N[C@@H](CO)C(=O)N[C@H](C(=O)N[C@H](C(=O)N[C@@H](CC(N)=O)C(=O)N[C@@H](Cc3ccccc3)C(=O)N[C@@H](CCC(=O)O)C(=O)N[C@@H](CCCCN)C(=O)N[C@@H](CC(C)C)C(=O)O)[C@@H](C)CC)[C@@H](C)CC)nn2)C(C)C)cc1 |  | HPLC-ESI-MS/MS | aqueous ammonium acetate | 10 µg/mL, eight days, pH 9.0, 20 °C |  | α-GalCer released | < 0.05%
CC(C)C[C@@H]1NC(=O)[C@H](CC(=O)O)NC(=O)CNC(=O)[C@H](CCCNC(=N)N)NC(=O)[C@H](Cc2ccccc2)NC(=O)[C@H](CCCCNC(=O)CCc2cn(CCCNC(=O)CCC(C(=O)O)N3CCN(CC(=O)O)CCN(CC(=O)O)CCN(CC(=O)O)CC3)nn2)N(C)C(=O)[C@H]2CCCN2C(=O)[C@H](Cc2ccccc2)NC(=O)[C@H](C)NC1=O (stereo partly shown) |  |  | female CB17 SCID mice, tumour and muscle | intravenous, dose not given, 90 min, 177Lu-labelled | relative to: tumour over muscle | tissue-to-tissue ratio | 17 ± 2.5
CC[C@H](C)[C@H](NC(=O)[C@H](CO)NC(=O)[C@H](Cc1ccc(O)cc1)NC(=O)[C@H](Cc1ccc(O)cc1)NC(=O)[C@H](CC(N)=O)NC(=O)CNC(=O)[C@H](CO)NC(=O)[C@H](Cc1ccc(O)cc1)NC(=O)[C@H](CO)NC(=O)[C@H](CO)NC(=O)[C@H](CC(N)=O)NC(=O)COCCOCCNC(=O)CN1CCN(CC(=O)O)CCN(CC(=O)O)CCN(CC(=O)O)CC1)C(=O)N[C@@H](CC(C)C)C(N)=O [copper-64 labelled] |  | dynamic PET | tamoxifen-induced PDAC mouse model, metastases | 1.6 min, CLDN4-expressing tumours |  | maximum metastasis uptake | 22.1 %IA/cc
CC(C)C[C@H](NC(=O)[C@@H]1CCCN1C(=O)[C@H](CCCCN)NC(=O)[C@@H](N)CO)C(=O)N1CCC[C@H]1C(=O)N[C@@H](CCC(=O)O)C(=O)N[C@H](C(=O)N[C@H](C(=O)N[C@@H](CC(=O)O)C(=O)N[C@@H](CCC(=O)O)C(=O)N[C@@H](Cc1ccc(O)cc1)C(=O)NCC(=O)NCCOCCOCCOCCOCCOCCOCCOCCOCCOCCOCCOCCOCCC(=O)N[C@@H](CCCCNC(=O)CC[C@H](C(=O)O)N1CCN(CC(=O)O)CCN(CC(=O)O)CC1)C(=O)N1CCN(CCCN(C)c2ccc3nccc(C(=O)NCC(=O)N4CC(F)(F)C[C@H]4C#N)c3c2)CC1)[C@@H](C)O)C(C)C [copper-64 labelled] |  | PET | NMRI nude mouse, HT-1080 hFAP xenograft, tumour | intravenous |  | time to maximum uptake | ≥ 10 min
CC[C@H](C)[C@@H]([C@@H](CC(=O)N1CCC[C@H]1[C@H](OC)[C@@H](C)C(=O)N[C@H](C)[C@@H](O)c1ccccc1)OC)N(C)C(=O)[C@@H](NC(=O)[C@H](C(C)C)N(C)C(=O)OCc1ccc(NC(=O)[C@H](CCCNC(N)=O)NC(=O)[C@@H](NC(=O)CCCCCN2C(=O)CC(SC[C@H](NC(=O)[C@H](CC(=O)O)NC(=O)[C@H](Cc3ccc(O)cc3)NC(=O)[C@H](Cc3c[nH]c4ccccc34)NC(=O)[C@@H](N)CCCNC(=N)N)C(=O)O)C2=O)C(C)C)cc1)C(C)C (stereo partly shown) |  |  | C57BL/6 mouse, healthy, kidney | intraperitoneal, 2.5 mg/kg, 24 h |  | concentration | not detected
CC(C)C[C@H](NC(=O)[C@@H](N)Cc1ccccc1)C(=O)N[C@@H](C)C(=O)N[C@H]1CSCc2cccc(n2)CSC[C@@H](C(=O)N[C@H](C(=O)NCC(=O)N[C@@H](CO)C(=O)N[C@@H](Cc2c[nH]c3ccccc23)C(=O)N[C@@H](CCCCNC(=O)CN2CCN(CC(=O)O)CCN(CC(=O)O)CCN(CC(=O)O)CC2)C(N)=O)[C@@H](C)O)NC(=O)[C@H](Cc2c[nH]cn2)NC(=O)[C@H]([C@@H](C)O)NC(=O)[C@H](CCC(=O)O)NC(=O)[C@@H]2CCCN2C1=O [gallium-68 labelled] |  | gamma counting | C57BL/6J mice, B16-F10 tumour, tumour | intravenous, 3.7 MBq, 4 h |  | tumour uptake | 6.06 ± 0.16 %ID/g
O=C1NC2(CC2)COc2ncc(F)cc2[C@H]2COCCN2c2ccn3ncc1c3n2 |  |  | Sprague-Dawley rat, male, kidneys | oral, 10 mg/kg/day, 4 weeks |  | organ weight | 3.52 ± 1.04 g
Cc1ccc(O[C@H]2CCN(C)C2)cc1C(=O)N[C@H](C)c1cc(-c2cnn(C)c2)nc2ccccc12 | Vero E6 |  |  | 250 µM |  | viability | 0.459% and 0.153%
CC(C)C[C@@H]1NC(=O)[C@H](CC(=O)O)NC(=O)CNC(=O)[C@H](CCCNC(=N)N)NC(=O)[C@H](Cc2ccccc2)NC(=O)[C@H](CCCCNC(=O)CCc2cn(CCCNC(=O)CN3CCN(CC(=O)O)CCN(CC(=O)O)CCN(CC(=O)O)CC3)nn2)N(C)C(=O)[C@H]2CCCN2C(=O)[C@H](Cc2ccccc2)NC(=O)[C@H](C)NC1=O |  |  | female CB17 SCID mice, tumour and muscle | intravenous, dose not given, 90 min, 177Lu-labelled | relative to: tumour over muscle | tissue-to-tissue ratio | 11.9 ± 8.9
CCCC[C@H](NC(=O)CN1CCC(NC(=S)Nc2ccc(C[C@H]3CN(CC(N)=O)CCN(CC(N)=O)CCN(CC(N)=O)CCN3CC(N)=O)cc2)CC1)C(=O)N[C@H]1CC(=O)NCCCC[C@@H](C(N)=O)NC(=O)[C@H](Cc2c[nH]c3ccccc23)NC(=O)[C@H](CCCNC(=N)N)NC(=O)[C@@H](Cc2ccccc2)NC(=O)[C@H](Cc2c[nH]cn2)NC1=O [lead-203 labelled] |  | shake flask | n-octanol/PBS | pH 7.4, 203Pb-labelled |  | logD | -2.16 ± 0.11
C[C@@H](O)[C@@H]1NC(=O)[C@@H](NC(=O)CCOCCOCCOCCOCCNC(=O)c2ccc(NN)nc2)CSSC[C@@H](C(=O)O)NC(=O)[C@H](Cc2c[nH]cn2)NC(=O)[C@H](CO)NC(=O)[C@H](Cc2ccccc2)NC(=O)[C@@H]2CCCN2C(=O)[C@H](CO)NC(=O)[C@@H]2CCCN2C1=O [technetium-99m labelled] |  |  | mouse HCT-116 xenograft, small intestine | intravenous, 37 MBq, postmortem after imaging |  | tissue uptake | 1.39 ± 0.4 %ID/g
Cc1cc(O)cc(C)c1C[C@H](N)C(=O)N[C@H](CCCNC(=N)N)C(=O)N[C@@H](Cc1ccccc1)C(=O)N[C@@H](CCCCN)C(=O)NCCCCCC(=O)N[C@@H](CCCCNC(=O)CN1CCN(CC(=O)O)CCN(CC(=O)O)CCN(CC(=O)O)CC1)C(N)=O [indium-111 labelled] |  |  |  | pH 7.4 |  | logD | -4.55 ± 0.11
N=C(N)NCCC[C@@H]1NC(=O)[C@H](CCCCNC(=O)CCC(NC(=S)Nc2ccc(CC3CN(CC(=O)O)CCN(CC(=O)O)CCN(CC(=O)O)CCN3CC(=O)O)cc2)C(=O)NCCCC[C@@H]2NC(=O)[C@@H](Cc3ccc(O)cc3)NC(=O)[C@H](CC(=O)O)NC(=O)CNC(=O)[C@H](CCCNC(=N)N)NC2=O)NC(=O)[C@@H](Cc2ccc(O)cc2)NC(=O)[C@H](CC(=O)O)NC(=O)CNC1=O (stereo partly shown) [scandium-44 labelled] |  | ex vivo γ-counting | female athymic nude mice, U-87 MG xenograft, liver | intravenous, 4 h |  | tissue uptake | 1.07 ± 0.65 %ID/g
CC(=O)N[C@@H](CC(C)C)C(=O)N[C@H](C(=O)N[C@@H](Cc1ccccc1)C(=O)N[C@]1(C)CCCCCC/C=C/CCC[C@@](C)(C(=O)N[C@@H](C)C(=O)N[C@@H](C)C(=O)N[C@@H](C)C(=O)N[C@@H](C)C(=O)N[C@@H](C)C(=O)N[C@H](C)C(N)=O)NC(=O)[C@H](CC(C)C)NC(=O)[C@H](CCCCNC(=O)CCNC(=O)C[C@@H]2N=C(c3ccc(Cl)cc3)c3c(sc(C)c3C)-n3c(C)nnc32)NC(=O)[C@H](C)NC(=O)[C@H](Cc2c[nH]c3ccccc23)NC(=O)[C@H](Cc2ccc(O)cc2)NC(=O)[C@H](C)NC1=O)[C@@H](C)O |  |  | male C57BL/6 mouse, plasma | intravenous, 10 mg/kg |  | half-life | 4.71 h
Cc1ccc(OCC2CN(C)C2)cc1C(=O)N[C@H](C)c1cc(-c2cnn(C)c2)nc2ccccc12 | Vero E6 |  |  | 500 µM |  | viability | 0.893% and 1.07%

Some of these lines once more:
Structure (SMILES) | target or system | assay | system | setting | how to read | endpoint | value
CC(C)C[C@H](NC(=O)[C@@H]1CCCN1C(=O)[C@H](CCCCN)NC(=O)[C@@H](N)CO)C(=O)N1CCC[C@H]1C(=O)N[C@@H](CCC(=O)O)C(=O)N[C@H](C(=O)N[C@H](C(=O)N[C@@H](CC(=O)O)C(=O)N[C@@H](CCC(=O)O)C(=O)N[C@@H](Cc1ccc(O)cc1)C(=O)NCC(=O)NCCOCCOCCOCCOCCOCCOCCOCCOCCOCCOCCOCCOCCC(=O)N[C@@H](CCCCNC(=O)CC[C@H](C(=O)O)N1CCN(CC(=O)O)CCN(CC(=O)O)CC1)C(=O)N1CCN(CCCN(C)c2ccc3nccc(C(=O)NCC(=O)N4CC(F)(F)C[C@H]4C#N)c3c2)CC1)[C@@H](C)O)C(C)C [copper-64 labelled] |  | PET | NMRI nude mouse, HT-1080 hFAP xenograft, tumour | intravenous |  | time to maximum uptake | ≥ 10 min
